# Results of several laboratories.
# Each numbered part is a random draw from the data of one study; scales do not carry over between parts. Values joined by “and” are separate records of one study, mostly repeats; a detail may differ.
# Sequence of UniProt P10721 (whole entry, unmodified, looked up): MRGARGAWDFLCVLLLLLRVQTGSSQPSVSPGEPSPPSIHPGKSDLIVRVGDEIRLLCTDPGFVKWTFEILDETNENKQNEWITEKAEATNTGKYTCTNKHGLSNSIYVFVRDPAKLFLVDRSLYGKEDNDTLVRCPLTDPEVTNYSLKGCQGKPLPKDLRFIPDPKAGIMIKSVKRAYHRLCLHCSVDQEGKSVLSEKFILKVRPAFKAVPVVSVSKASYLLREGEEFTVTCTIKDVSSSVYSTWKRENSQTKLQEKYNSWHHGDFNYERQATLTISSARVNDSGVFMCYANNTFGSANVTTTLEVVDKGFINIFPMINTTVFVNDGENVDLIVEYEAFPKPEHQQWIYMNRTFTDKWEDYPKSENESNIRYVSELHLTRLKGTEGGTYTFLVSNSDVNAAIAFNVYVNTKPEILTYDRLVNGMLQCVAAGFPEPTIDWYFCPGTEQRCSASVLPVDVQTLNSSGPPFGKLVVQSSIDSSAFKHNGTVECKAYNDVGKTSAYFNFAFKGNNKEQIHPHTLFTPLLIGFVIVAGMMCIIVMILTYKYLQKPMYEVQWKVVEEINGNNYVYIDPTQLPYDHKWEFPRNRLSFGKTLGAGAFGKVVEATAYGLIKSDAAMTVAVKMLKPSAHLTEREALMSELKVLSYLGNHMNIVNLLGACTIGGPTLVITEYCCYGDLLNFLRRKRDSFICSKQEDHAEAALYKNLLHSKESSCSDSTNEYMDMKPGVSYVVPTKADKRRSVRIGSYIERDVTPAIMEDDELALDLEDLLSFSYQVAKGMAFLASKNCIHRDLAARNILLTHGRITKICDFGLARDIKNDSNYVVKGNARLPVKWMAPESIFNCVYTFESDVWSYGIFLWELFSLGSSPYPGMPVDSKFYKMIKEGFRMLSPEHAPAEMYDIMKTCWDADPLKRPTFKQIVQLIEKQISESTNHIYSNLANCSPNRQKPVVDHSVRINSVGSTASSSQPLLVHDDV
# Sequence of UniProt Q9UQB9 (whole entry, looked up): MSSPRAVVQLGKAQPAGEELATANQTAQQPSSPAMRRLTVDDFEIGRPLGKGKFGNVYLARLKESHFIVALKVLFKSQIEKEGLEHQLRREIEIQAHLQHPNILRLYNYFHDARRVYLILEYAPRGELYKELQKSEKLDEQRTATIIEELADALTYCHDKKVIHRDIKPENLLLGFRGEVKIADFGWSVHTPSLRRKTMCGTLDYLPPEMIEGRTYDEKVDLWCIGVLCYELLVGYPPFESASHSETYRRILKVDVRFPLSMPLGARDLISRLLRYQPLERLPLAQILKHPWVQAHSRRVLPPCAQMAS
# Sequence of UniProt P42336 (whole entry, looked up): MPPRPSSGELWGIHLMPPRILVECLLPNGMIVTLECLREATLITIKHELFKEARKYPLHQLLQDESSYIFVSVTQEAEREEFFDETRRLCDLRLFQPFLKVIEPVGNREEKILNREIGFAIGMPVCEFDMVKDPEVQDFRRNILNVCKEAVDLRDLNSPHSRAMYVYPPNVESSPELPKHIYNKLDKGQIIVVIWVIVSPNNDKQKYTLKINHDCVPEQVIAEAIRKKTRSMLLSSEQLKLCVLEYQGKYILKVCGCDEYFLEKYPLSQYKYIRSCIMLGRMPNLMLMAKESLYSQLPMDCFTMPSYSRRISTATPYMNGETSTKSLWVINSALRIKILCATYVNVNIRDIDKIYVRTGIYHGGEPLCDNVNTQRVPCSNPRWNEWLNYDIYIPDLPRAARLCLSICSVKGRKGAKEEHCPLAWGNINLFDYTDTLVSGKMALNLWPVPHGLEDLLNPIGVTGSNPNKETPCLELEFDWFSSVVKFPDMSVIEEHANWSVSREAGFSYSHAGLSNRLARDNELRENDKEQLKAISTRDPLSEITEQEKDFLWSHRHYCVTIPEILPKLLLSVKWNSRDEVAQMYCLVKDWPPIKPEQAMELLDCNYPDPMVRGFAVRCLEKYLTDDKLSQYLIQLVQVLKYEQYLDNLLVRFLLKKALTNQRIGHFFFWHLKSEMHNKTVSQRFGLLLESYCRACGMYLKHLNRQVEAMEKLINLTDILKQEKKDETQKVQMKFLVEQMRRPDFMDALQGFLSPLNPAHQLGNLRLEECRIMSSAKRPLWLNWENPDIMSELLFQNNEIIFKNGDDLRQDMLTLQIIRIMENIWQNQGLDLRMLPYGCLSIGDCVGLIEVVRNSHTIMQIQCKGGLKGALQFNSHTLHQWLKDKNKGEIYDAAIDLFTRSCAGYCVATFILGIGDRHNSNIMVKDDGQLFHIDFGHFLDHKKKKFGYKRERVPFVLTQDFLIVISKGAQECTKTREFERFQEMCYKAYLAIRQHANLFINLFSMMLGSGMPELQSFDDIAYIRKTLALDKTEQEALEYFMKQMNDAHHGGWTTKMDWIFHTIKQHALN
# Sequence of UniProt P07333 (whole entry, looked up): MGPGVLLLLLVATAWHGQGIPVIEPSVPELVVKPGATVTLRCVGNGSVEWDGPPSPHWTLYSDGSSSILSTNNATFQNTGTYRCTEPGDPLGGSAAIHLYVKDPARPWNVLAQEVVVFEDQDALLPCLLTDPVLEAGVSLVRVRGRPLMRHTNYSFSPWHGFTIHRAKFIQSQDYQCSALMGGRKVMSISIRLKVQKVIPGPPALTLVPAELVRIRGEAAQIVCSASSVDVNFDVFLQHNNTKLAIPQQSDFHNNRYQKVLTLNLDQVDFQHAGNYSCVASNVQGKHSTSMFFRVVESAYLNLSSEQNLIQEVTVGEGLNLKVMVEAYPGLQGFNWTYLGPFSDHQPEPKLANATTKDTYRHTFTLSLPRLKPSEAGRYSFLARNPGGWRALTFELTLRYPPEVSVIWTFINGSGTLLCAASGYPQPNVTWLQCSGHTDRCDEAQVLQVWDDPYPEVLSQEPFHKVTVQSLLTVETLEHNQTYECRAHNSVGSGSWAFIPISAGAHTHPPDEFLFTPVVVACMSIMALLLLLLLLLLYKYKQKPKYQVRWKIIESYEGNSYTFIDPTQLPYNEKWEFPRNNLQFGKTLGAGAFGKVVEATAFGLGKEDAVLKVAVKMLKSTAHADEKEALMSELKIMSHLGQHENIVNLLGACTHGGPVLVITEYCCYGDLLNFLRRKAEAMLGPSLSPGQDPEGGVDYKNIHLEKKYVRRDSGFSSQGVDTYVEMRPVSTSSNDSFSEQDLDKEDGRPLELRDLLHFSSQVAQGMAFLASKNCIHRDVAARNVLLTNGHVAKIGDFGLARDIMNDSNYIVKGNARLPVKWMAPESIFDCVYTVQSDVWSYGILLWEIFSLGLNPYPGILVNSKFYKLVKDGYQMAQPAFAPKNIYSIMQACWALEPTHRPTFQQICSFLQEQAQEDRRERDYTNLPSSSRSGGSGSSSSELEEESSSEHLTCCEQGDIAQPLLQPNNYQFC
# Sequence of UniProt Q9HBH9 (whole entry, looked up): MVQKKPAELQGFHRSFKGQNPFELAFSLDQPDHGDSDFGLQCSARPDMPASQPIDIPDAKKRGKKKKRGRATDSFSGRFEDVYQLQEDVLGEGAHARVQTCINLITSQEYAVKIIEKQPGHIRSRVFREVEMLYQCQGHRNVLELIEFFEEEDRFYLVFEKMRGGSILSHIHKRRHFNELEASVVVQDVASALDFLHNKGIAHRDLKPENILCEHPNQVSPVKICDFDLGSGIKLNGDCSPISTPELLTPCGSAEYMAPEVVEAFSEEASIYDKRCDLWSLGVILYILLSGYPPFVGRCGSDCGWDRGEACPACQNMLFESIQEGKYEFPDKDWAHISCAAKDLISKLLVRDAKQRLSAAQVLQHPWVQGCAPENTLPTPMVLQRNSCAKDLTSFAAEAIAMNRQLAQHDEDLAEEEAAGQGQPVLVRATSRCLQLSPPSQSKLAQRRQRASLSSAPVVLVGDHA
# Sequence of UniProt Q7KZI7 (whole entry, looked up): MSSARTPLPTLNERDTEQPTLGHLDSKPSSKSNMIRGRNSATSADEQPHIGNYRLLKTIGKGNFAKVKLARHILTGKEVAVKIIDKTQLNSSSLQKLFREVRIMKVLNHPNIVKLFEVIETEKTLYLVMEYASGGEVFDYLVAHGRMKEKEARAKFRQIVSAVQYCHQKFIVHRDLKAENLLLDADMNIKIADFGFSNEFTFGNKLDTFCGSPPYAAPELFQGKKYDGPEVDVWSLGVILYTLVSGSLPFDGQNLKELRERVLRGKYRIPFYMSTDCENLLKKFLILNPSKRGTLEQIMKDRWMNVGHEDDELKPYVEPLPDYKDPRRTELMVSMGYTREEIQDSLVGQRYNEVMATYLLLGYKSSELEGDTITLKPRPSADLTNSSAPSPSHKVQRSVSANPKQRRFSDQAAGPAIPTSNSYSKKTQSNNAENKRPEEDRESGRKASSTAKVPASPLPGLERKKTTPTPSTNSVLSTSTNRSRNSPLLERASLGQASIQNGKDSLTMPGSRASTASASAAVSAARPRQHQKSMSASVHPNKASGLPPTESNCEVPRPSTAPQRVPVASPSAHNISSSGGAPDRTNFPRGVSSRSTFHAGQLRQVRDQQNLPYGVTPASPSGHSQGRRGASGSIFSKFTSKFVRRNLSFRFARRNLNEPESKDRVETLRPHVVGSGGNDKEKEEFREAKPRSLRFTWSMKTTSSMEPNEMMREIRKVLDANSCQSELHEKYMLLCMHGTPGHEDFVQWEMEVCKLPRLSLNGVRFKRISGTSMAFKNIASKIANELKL
# Sequence of UniProt P11802 (whole entry, looked up): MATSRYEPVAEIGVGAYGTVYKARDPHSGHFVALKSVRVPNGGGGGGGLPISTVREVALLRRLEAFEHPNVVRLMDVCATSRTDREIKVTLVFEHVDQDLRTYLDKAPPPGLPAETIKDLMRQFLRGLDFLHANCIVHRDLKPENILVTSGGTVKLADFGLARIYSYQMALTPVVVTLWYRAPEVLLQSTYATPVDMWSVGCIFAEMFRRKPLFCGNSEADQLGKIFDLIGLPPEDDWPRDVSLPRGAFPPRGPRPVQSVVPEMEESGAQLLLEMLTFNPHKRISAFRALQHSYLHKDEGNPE

# Block 1
# Compound: Cc1ncsc1-c1ccc(C(CO)NC(=O)C2CC(O)CN2C(=O)C(C(C)C)n2cc(-c3ccc(COc4c(-c5c(C)c(F)cc6[nH]ncc56)c(C5CC5)cc5c(N6CC7CC6CN7)nc(OC6CCOCC6)nc45)cc3)nn2)cc1 (centres unmarked)
cells,species,route,dose,time,tumour volume
,"mouse, ASPC1 xenograft",,30 mg/kg once weekly,day 0,193 mm3 and 222 mm3 and 184 mm3 and 176 mm3 and 241 mm3
,"mouse, PK-59 xenograft",,10 mg/kg,day 4,321 mm3 and 371 mm3 and 373 mm3 and 282 mm3 and 372 mm3
,"mouse, A-375 xenograft",sc,30 mg/kg once daily,day 1,177 mm3 and 126 mm3 and 152 mm3 and 137 mm3 and 162 mm3
GP5d xenograft,mouse,,30 mg/kg once weekly,day 7,178 mm3 and 223 mm3 and 167 mm3 and 168 mm3 and 149 mm3
,"mouse, PK-59 xenograft",,3 mg/kg,day 10,473 mm3 and 565 mm3 and 426 mm3 and 542 mm3 and 436 mm3
PK-1 xenograft,mouse,,30 mg/kg twice weekly,day 10,135 mm3 and 142 mm3 and 160 mm3 and 165 mm3 and 95.7 mm3
HPAC xenograft,mouse,,30 mg/kg twice weekly,day 0,226 mm3 and 215 mm3 and 213 mm3 and 307 mm3 and 203 mm3

# Block 2
# Compound: CC[C@@]1(c2cccc(-c3c(F)cncc3OC)c2)C2=C(Nc3n[nH]cc31)[C@H](F)C(C)(C)CC2=O (single isomer, unassigned)
# Concentration: 1 µM
target,read-out,method,reference,remaining binding [%]
"Cyclin-dependent kinase 4, with cyclin D3 (CDK4, Homo sapiens, UniProt P11802)",binding,competition with immobilised ligand,,86
"MKNK2 (Homo sapiens, UniProt Q9HBH9)",kinase binding,KINOMEscan,DMSO control,47
"KIT (Homo sapiens, UniProt P10721)",binding,competition with immobilised ligand,,100
"MARK2 (Homo sapiens, UniProt Q7KZI7)",binding,competition with immobilised ligand,,84
"KIT (Homo sapiens, UniProt P10721, D816V)",kinase binding,KINOMEscan,DMSO control,100
"ALK (Homo sapiens, UniProt Q9UM73, L1196M)",kinase binding,KINOMEscan,DMSO control,100
"Aurora kinase C (AURKC, Homo sapiens, UniProt Q9UQB9)",kinase binding,KINOMEscan,DMSO control,61
"PIK3CA (Homo sapiens, UniProt P42336)",binding,competition with immobilised ligand,,64
"SNRK (Homo sapiens, UniProt Q9NRH2)",kinase binding,KINOMEscan,DMSO control,89
"Macrophage colony-stimulating factor 1 receptor, autoinhibited (CSF1R, Homo sapiens, UniProt P07333)",kinase binding,KINOMEscan,DMSO control,73
"ULK1 (Homo sapiens, UniProt O75385)",kinase binding,KINOMEscan,DMSO control,67
"CDK11B (Homo sapiens, UniProt P21127)",kinase binding,KINOMEscan,DMSO control,100

# Block 3
# Compound: COc1cc(C(=O)OCCCN2CCCN(CCCOC(=O)c3cc(OC)c(OC)c(OCc4ccc([N+](=O)[O-])cc4)c3)CC2)cc(OC)c1OC
test,test system,setting,paw withdrawal frequency
"von Frey, 0.4 g filament","mouse, CFA inflammatory pain","intraplantar, after CFA, before dosing",90% and 100% and 80%
von Frey test,"mouse, STZ diabetic neuropathy","subcutaneous, 30 mg/kg, second of three doses, 3 h",0.23 fraction of stimuli and 0.51 fraction of stimuli and 0.09 fraction of stimuli and 0.1 fraction of stimuli and 0.36 fraction of stimuli and 0.98 fraction of stimuli
"von Frey, 0.4 g filament","mouse, CFA inflammatory pain","intravenous, dose not given, 1 h post-dose, third injection, day 5",20% and 40% and 30%
von Frey test,"mouse, STZ diabetic neuropathy","subcutaneous, 30 mg/kg, second of three doses, 24 h",0.29 fraction of stimuli and 0.13 fraction of stimuli and 0.23 fraction of stimuli and 0.32 fraction of stimuli and 0.06 fraction of stimuli
cold mechanical pain,"mouse, spared nerve injury model","intrathecal, 100 nmol, before second of 3 doses",50% and 80% and 60%
"von Frey, 0.4 g filament","mouse, CFA inflammatory pain","intraplantar, baseline before CFA",10% and 20% and 0%

# Single results of other studies
SMILES,test,test system,setting,endpoint,value
Cc1ccc(O)c(C)c1-c1cnc2[nH]c(-c3cnc(N4CCC(CN5CCN(c6cc7c(cc6F)n(C6CCC(=O)NC6=O)c(=O)n7C)CC5)CC4)nc3)cc2c1C#N (centres unmarked),,"female CD-1 mouse, plasma","oral, 20 mg/kg",AUC(0-t),2130 ng·h/mL
Cc1ccc(O)c(C)c1-c1cnc2[nH]c(-c3cnc(N4CCC(CN5CCN(c6ccc(NC7CCC(=O)NC7=O)cc6F)CC5)CC4)nc3)cc2c1C#N (centres unmarked),,"male beagle dog, plasma","intravenous, 1 mg/kg",Vd,2.5 L/kg
Cc1ccc(O)c(C)c1-c1cnc2[nH]c(-c3cnc(N)nc3)cc2c1C#N,KINOMEscan,403 non-mutant kinase panel,"1000 nM, percent of control below 1",number of kinases bound,1
Cc1ccc(O)c(C)c1-c1cnc2[nH]c(-c3cnc(N4CCC5(CC4)CC(N4CCN(c6ccc(NC7CCC(=O)NC7=O)cc6F)CC4)CO5)nc3)cc2c1C#N (centres unmarked),,"CD-1 mouse, female, plasma","intravenous, 1 mg/kg",plasma clearance,56.8 mL/min/kg

# Some of these lines once more (block 1):
cells,species,route,dose,time,tumour volume
,"mouse, ASPC1 xenograft",,30 mg/kg once weekly,day 0,193 mm3 and 222 mm3 and 184 mm3 and 176 mm3 and 241 mm3
,"mouse, PK-59 xenograft",,10 mg/kg,day 4,321 mm3 and 371 mm3 and 373 mm3 and 282 mm3 and 372 mm3
,"mouse, A-375 xenograft",sc,30 mg/kg once daily,day 1,177 mm3 and 126 mm3 and 152 mm3 and 137 mm3 and 162 mm3
GP5d xenograft,mouse,,30 mg/kg once weekly,day 7,178 mm3 and 223 mm3 and 167 mm3 and 168 mm3 and 149 mm3
